# Results collected from several papers.
# Several values in a cell are separate wells, animals, samples, runs or records.
SMILES,assay,system,setting,scale,quantity,result
C=CC(=O)Nc1cc(Nc2nccc(-c3cn(C)c4ccccc34)n2)c(OC)cc1N(C)CCN(C)C,storage stability,human plasma,"10 d, on ice, HQC level",,recovery,63.2%
CC(=O)O[C@H]1C(=O)[C@@]2(C)[C@H]([C@H](OC(=O)c3ccccc3)[C@]3(O)C[C@H](OC(=O)[C@H](O)[C@@H](NC(=O)c4ccccc4)c4ccccc4)C(C)=C1C3(C)C)[C@]1(OC(C)=O)CO[C@@H]1C[C@@H]2O,refers to: Pyrexia,patients with advanced solid tumours,"intravenous, dose not given, grade 1 and 2, possibly related to drug",,adverse event incidence,13%
N[C@H]1C(O)O[C@H](CO)[C@@H](O)[C@@H]1O (some centres unmarked),,aqueous solution,"50 mM, together with: glucose",,osmolality,45 mOsmol/kg
CCn1cc(C)c2c([C@H](N)c3ccc(C(F)(F)F)nc3)n(C)nc2c1=O,,"rat Sprague-Dawley male, blood","intravenous, 1 mg/kg",,"CLint,u",17.1 mL/min/kg
CNC(=O)c1ccc(-c2cnc3ncc(Cc4ccc5ncccc5c4)n3n2)cc1F,,Japanese patients,"oral, 400 mg, any grade",,ALT increased dose reduction/interruption,2%
CNC(=O)c1cc(Oc2ccc(NC(=O)Nc3cc(C(C)(C)C)nn3-c3ccc4ncccc4c3)c(F)c2)ccn1,refers to: worst grade 2,human,"oral, dose not given, cycles 1 and 2, Medium Cmax subgroup",,patients with nervous system disorder AE,7%
CNC(=O)c1ccc(-c2cnc3ncc(Cc4ccc5ncccc5c4)n3n2)cc1F,refers to: Constipation,cancer patients,"oral, 600 mg twice daily, all expansion cohorts, grade 3-4",,patients with adverse event,5%
CCc1c(-c2ccccc2)c(-c2ccccc2)nn1-c1ccccc1-c1cccc(OCC(=O)O)c1,,"female Sprague-Dawley rat, ovary homogenate","oral, 10 mg/kg, 8 h",,concentration,32.8 ng/mL
Cn1ncnc1[C@H]1c2n[nH]c(=O)c3cc(F)cc(c23)N[C@@H]1c1ccc(F)cc1,,"human patients, plasma","oral, 400 µg/m2, dose level DL2, median, together with: temozolomide 20 mg/m2 daily days 2-6",,accumulation half-life,54.4 h
N#C[C@@]12C[C@@H]1[C@@H](n1cnc3c(N[C@@H](C4CCC4)C4CC4)nc(I)nc31)[C@H](O)[C@@H]2O,,"Wistar rats male, plasma","oral, 1.0 mg/kg",,elimination rate constant,8.75e-05 s⁻¹
CCc1cc2ncc(CN3CCN(c4ccc(C(=O)NC)nc4)CC3)cc2[nH]c1=O,,"male rat, blood","oral, 25 mg/kg/day, 4 weeks",baseline: vehicle control,Monocytes count ratio,0.33
O=C(Nc1cc(C2CCCCC2)[nH]n1)c1ccc(Br)cc1,,octanol/buffer,pH 11,,logP,4.64
O=C(O)CSc1nnc(Br)n1-c1ccc(C2CC2)c2ccccc12,,"KM mouse, chronic hyperuricaemia model","dose not given, day 9",,body weight,31.2 g and 30.8 g and 25.4 g and 33.2 g and 25.8 g and 29.6 g
N[C@@H]1c2cccnc2[C@H](OC(=O)N2CCC(n3c(=O)[nH]c4ncccc43)CC2)CC[C@H]1c1cccc(F)c1F,,"human, severe hepatic impairment","oral, 75 mg",baseline: healthy subjects,decrease in CL/F,42.3%
O=C(Nc1ccc(S(=O)(=O)Nc2ncccn2)cc1)c1c(Cl)cccc1Cl,,octanol/buffer,"pH 11, known kinase inactives set",,logP,-0.53
Cc1ccc([C@@H]2O[C@H](CO)[C@@H](O)[C@H](O)[C@H]2O)cc1Cc1ccc(-c2ccc(F)cc2)s1,,Japanese type 2 diabetes patients,"200 mg, day 15, 24 h urine collection",baseline: baseline,urinary calcium excretion change,-30.8 mg
CO[C@H]1/C=C/O[C@@]2(C)Oc3c(C)c(O)c4c(O)c(c(/C=N/N5CCN(C)CC5)c(O)c4c3C2=O)NC(=O)/C(C)=C\C=C\[C@H](C)[C@H](O)[C@@H](C)[C@@H](O)[C@@H](C)[C@H](OC(C)=O)[C@@H]1C,,healthy humans,"oral, dose not given",,adverse event Dizziness,8.3%
CN1C(=O)[C@@H](NC(=O)c2nnc(Cc3ccccc3)[nH]2)COc2cccnc21,,"human, both sexes",concentration not given,baseline: day 14 over day 1,accumulation ratio,~1
COc1ccnc(C(=O)NC(CO)C(=O)O)c1O (racemic),aerobic dark soil incubation,clay soil,"20 °C, modelling endpoint",,DT50,60.1 days
Cl.[2H]C([2H])([2H])CC(=O)c1cnc(NC(=O)C2CC2)cc1Nc1cccc(-c2ncn(C([2H])([2H])[2H])n2)c1OC,,"human, fasted","oral, 25 mg, single dose, liquid formulation, geometric mean",,AUC(0-24 h),1640 ng·h/mL
